Experimental data collected from several papers.
A part holds a random share of what one study measured.

Set 1
Target: Histone acetyltransferase KAT6A, both winged helices, GST fusion (KAT6A, Homo sapiens, UniProt Q92794, residues 1-181)
Technique: protein binding microarray
Form: double-stranded DNA, one strand shown
Sample: in vitro
Concentration: not given
Notes: 8-mer, flanks averaged, mean of 2 arrays, mostly near background
Reference: not given
Direction: higher = stronger binding
Measurement: E-score
Residues (chain): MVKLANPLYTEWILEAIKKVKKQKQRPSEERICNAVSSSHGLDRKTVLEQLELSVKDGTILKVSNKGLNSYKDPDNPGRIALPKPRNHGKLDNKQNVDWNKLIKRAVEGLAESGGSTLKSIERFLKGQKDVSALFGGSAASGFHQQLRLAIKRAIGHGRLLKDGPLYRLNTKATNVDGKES
ATATACTG: -0.0884
GTTTCCCA: -0.0915
GAAACCTA: -0.0401
GTTATCTA: -0.0134

Set 2
Target: Interferon regulatory factor 3, full length, phosphomimetic (IRF3, Homo sapiens, UniProt Q14653, residues 1-427, S386D/S396D/S398D/S402D/T404D/S405D)
Technique: protein-binding microarray
Form: double-stranded DNA, one strand shown
Sample: in vitro
Concentration: 2540 nM top
Notes: 60-bp whole probe
Added: salmon DNA 0.4 mg/ml
Reference: random background probes
Direction: higher = stronger binding
Measurement: fitted relative affinity
Target sequence (chain): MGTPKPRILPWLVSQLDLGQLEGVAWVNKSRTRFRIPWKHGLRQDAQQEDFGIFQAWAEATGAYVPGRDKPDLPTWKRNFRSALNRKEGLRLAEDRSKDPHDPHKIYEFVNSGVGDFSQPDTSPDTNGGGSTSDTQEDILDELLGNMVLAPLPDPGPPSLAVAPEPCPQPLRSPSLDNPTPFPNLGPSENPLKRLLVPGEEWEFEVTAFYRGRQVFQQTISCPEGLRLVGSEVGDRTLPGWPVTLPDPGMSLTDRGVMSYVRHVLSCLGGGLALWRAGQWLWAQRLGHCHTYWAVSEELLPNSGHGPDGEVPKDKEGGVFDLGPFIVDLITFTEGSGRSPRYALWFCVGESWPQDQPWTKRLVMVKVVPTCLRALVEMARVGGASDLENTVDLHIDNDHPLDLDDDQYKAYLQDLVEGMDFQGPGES
GCCTAGCACAGTATGTTCCCTATTTAAGGGTGCTAGGTCTTGATTCGCTTGACGCTGCTG: 2.71 z-score
GCCTAGCACTTAAAAAAAAAAAACTGTAACGTGCTAGTCTTGATTCGCTTGACGCTGCTG: -0.466 z-score
GCCTAGCACTCATTTTTAGCTTGCAAACTGTGCTAGGTCTTGATTCGCTTGACGCTGCTG: 1.18 z-score
GCCTAGCACTTAGGTTTCCGTCTCCTTTAGTGCTAGGTCTTGATTCGCTTGACGCTGCTG: 6.95 z-score

Set 3
Target: Sal-like protein 4, full length isoform A (SALL4, Homo sapiens, UniProt Q9UJQ4, residues 1-1053)
Chain of UniProt Q9UJQ4 (whole entry, looked up): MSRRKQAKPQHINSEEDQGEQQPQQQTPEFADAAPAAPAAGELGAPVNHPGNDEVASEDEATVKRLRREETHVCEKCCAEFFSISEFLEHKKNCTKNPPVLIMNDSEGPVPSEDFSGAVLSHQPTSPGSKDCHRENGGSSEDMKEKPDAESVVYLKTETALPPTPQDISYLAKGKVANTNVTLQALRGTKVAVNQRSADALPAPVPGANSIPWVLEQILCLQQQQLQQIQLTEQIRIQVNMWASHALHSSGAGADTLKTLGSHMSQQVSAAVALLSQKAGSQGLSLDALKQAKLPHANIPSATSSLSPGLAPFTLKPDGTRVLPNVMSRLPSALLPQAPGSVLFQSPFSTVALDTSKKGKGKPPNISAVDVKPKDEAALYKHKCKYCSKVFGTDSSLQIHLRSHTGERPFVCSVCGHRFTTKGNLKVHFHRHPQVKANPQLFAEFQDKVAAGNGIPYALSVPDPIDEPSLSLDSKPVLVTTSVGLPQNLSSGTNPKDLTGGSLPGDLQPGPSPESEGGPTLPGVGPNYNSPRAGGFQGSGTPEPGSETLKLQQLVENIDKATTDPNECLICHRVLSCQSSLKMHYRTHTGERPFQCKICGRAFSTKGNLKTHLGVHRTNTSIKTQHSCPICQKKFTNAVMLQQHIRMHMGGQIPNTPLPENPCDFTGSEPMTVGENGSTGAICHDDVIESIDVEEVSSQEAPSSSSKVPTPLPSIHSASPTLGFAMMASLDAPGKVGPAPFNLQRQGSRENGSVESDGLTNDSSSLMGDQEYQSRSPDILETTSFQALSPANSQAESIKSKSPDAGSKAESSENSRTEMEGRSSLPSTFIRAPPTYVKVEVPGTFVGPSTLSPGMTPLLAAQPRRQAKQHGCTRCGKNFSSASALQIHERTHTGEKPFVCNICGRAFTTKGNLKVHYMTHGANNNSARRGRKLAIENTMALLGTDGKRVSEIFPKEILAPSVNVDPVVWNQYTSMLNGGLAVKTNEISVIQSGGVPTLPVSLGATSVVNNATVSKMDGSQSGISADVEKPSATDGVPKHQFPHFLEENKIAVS
Technique: universal PBM
Form: double-stranded DNA, one strand shown
Sample: in vitro
Concentration: 600 nM
Notes: 8-mer, flanks averaged, mean of replicates
Direction: higher = stronger binding
Measurement: E-score
CCAAGACC: -0.257
CAACGCTA: -0.114
CAACCTTA: 0.106

Mixed results
PhoQ, residues 284 288 289 292 302 303 ALSMDL — fold induction (PhoP, residues 12 14 15 18 19 LWHCS (Escherichia coli, UniProt P23836); Sort-seq, measured: YFP reporter; E. coli; PhoQ-PhoP variant library, added: 10 µM Mg2+; reference: high Mg2+ state, higher = stronger signaling): 7.82

Some of these lines once more (set 2):
GCCTAGCACTCATTTTTAGCTTGCAAACTGTGCTAGGTCTTGATTCGCTTGACGCTGCTG: 1.18 z-score
